Experimental data gathered from unrelated publications.
Each numbered part is a random draw from the data of one study; scales do not carry over between parts.
UniProt P42680, sequence (whole entry, looked up): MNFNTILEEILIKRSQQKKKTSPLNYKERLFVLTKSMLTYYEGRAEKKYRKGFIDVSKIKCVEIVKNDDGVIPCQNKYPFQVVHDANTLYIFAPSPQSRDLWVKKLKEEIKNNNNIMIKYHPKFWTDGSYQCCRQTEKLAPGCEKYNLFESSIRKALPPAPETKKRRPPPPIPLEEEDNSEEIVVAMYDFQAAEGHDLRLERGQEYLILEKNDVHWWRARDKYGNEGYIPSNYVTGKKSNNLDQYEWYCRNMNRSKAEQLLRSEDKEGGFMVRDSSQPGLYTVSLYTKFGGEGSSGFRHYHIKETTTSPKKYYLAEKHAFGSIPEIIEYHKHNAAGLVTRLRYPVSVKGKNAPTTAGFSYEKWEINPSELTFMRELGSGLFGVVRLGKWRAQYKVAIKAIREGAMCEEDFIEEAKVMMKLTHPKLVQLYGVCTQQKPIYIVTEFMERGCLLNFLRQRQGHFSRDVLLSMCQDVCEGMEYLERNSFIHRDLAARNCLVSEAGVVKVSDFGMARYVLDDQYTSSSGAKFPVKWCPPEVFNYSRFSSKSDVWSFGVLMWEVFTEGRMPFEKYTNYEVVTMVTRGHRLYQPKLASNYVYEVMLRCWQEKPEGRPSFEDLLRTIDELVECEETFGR
UniProt Q9P286, sequence (whole entry, looked up): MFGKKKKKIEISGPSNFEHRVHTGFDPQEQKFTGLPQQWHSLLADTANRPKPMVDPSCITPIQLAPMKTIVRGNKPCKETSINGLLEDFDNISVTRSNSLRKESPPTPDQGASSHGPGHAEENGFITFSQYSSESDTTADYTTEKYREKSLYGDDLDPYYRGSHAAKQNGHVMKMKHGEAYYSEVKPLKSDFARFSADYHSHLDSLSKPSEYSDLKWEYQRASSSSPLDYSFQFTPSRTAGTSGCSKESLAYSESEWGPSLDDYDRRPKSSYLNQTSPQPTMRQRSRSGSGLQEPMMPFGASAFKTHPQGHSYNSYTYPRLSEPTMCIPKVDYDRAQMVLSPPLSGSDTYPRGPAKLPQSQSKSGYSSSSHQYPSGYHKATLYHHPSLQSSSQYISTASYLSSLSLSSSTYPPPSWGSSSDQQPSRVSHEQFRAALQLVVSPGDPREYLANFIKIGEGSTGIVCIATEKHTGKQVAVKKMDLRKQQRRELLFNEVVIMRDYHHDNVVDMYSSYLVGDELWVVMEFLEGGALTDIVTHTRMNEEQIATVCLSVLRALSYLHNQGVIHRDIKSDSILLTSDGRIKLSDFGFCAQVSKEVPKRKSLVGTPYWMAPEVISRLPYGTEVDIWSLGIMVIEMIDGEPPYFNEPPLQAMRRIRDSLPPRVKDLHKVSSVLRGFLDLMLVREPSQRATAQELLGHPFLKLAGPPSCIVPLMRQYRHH
UniProt Q02763, sequence (whole entry, looked up): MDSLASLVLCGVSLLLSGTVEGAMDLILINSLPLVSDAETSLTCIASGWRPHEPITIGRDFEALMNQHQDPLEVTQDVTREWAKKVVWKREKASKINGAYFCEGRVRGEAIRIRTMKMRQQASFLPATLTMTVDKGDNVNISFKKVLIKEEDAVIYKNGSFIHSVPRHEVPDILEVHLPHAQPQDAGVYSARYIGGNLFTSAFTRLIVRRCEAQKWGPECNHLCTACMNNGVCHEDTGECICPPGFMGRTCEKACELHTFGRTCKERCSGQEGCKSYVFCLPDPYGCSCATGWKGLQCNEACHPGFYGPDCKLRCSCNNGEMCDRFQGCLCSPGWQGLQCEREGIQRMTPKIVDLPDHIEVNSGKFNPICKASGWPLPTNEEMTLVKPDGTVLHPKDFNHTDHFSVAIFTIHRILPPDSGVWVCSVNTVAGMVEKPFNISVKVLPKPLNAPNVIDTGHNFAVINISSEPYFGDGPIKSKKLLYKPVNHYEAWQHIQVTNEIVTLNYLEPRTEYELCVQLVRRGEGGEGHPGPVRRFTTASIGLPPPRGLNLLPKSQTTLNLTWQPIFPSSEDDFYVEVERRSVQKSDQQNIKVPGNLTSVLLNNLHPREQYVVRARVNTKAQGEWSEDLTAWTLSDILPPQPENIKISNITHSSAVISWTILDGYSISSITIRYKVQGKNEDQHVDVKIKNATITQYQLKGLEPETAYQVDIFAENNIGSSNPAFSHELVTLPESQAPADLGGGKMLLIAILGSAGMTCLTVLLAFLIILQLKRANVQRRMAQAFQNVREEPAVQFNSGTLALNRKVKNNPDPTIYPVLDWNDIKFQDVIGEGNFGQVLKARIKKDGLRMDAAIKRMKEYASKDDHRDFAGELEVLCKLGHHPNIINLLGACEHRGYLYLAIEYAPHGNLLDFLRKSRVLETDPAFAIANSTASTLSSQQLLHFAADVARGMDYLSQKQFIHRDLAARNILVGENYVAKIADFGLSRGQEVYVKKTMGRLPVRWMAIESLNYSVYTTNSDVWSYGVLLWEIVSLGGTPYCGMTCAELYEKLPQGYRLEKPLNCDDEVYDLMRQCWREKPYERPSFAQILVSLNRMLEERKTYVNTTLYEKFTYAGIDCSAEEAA
UniProt Q96BR1, sequence (whole entry, looked up): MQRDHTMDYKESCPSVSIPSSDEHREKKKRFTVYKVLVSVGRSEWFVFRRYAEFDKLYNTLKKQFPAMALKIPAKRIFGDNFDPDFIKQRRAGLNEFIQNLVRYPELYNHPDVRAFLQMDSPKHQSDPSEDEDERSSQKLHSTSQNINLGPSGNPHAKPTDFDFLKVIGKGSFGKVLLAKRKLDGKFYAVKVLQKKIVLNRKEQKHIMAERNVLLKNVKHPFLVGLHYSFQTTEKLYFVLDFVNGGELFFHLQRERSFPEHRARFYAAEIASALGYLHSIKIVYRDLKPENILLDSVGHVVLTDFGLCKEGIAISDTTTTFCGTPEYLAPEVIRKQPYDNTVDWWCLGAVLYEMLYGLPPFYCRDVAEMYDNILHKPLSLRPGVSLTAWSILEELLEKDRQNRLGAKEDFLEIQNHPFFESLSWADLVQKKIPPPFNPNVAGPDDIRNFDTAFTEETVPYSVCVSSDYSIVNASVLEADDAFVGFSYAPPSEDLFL
UniProt Q16512, sequence (whole entry, looked up): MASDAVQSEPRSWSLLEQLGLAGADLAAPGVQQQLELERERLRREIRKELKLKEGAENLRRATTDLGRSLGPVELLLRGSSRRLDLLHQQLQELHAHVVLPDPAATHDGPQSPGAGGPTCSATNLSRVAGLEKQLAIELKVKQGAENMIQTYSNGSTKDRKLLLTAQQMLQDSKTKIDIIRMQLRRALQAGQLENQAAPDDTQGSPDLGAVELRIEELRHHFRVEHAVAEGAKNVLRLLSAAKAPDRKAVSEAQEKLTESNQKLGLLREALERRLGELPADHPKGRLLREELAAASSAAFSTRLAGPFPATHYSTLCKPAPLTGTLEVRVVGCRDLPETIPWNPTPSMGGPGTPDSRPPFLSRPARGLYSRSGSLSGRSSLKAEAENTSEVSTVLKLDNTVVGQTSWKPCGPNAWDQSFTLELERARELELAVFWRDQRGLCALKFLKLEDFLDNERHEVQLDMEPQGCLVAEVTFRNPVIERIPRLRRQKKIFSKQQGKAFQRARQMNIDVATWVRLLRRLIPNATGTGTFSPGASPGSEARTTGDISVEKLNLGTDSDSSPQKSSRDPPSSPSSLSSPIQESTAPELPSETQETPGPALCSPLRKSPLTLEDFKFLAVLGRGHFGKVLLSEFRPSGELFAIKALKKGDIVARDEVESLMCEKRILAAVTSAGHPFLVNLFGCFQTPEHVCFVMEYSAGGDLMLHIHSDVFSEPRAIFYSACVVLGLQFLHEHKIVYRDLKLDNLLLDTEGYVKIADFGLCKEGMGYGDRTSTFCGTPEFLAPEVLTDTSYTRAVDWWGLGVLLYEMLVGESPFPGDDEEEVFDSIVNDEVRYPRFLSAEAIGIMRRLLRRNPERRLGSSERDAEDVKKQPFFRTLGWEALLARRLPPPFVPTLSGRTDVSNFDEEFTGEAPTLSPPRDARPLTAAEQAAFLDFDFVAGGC
UniProt Q8TDR2, sequence (whole entry, looked up): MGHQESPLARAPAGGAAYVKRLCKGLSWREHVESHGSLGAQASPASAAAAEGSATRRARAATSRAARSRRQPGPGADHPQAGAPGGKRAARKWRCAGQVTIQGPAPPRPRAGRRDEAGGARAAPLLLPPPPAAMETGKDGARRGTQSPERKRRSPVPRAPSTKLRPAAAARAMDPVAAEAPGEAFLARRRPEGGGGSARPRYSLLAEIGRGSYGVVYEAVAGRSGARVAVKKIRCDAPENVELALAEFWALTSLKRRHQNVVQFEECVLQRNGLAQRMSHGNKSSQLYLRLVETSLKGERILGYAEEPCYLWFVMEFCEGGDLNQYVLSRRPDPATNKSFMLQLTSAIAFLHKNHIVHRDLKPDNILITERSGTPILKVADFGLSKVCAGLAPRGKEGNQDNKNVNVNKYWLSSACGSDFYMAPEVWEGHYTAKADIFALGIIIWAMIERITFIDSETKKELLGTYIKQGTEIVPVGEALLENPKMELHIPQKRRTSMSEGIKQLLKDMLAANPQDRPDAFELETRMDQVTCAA

Sample 1 — method: competition with immobilised ligand; tested at: 1 µM; endpoint: remaining binding
Structure (SMILES): Cc1nc(Cc2cccc(C(F)(F)F)c2)sc1-c1ccc(C(N)=O)nc1
Rho-associated protein kinase 1 (ROCK1, Homo sapiens, UniProt Q13464); cell-free assay: 69%
Dual specificity protein kinase CLK4 (CLK4, Homo sapiens, UniProt Q9HAZ1); cell-free assay: 83%
Phosphatidylinositol 4,5-bisphosphate 3-kinase catalytic subunit alpha isoform (PIK3CA, Homo sapiens, UniProt P42336, E545K); cell-free assay: 77%
Angiopoietin-1 receptor (TEK, Homo sapiens, UniProt Q02763); cell-free assay: 80%
Mitogen-activated protein kinase kinase kinase 7 (MAP3K7, Homo sapiens, UniProt O43318); cell-free assay: 93%
Phosphatidylinositol 4-phosphate 5-kinase type-1 alpha (PIP5K1A, Homo sapiens, UniProt Q99755); cell-free assay: 100%
Ribosomal protein S6 kinase alpha-5, C-terminal kinase domain (RPS6KA5, Homo sapiens, UniProt O75582); cell-free assay: 100%
Tyrosine-protein kinase receptor Tie-1 (TIE1, Homo sapiens, UniProt P35590); binding: 28%
Tyrosine-protein kinase Tec (TEC, Homo sapiens, UniProt P42680); binding: 100%
Serine/threonine-protein kinase Nek11 (NEK11, Homo sapiens, UniProt Q8NG66); cell-free assay: 100%
Calcium/calmodulin-dependent protein kinase type 1B (PNCK, Homo sapiens, UniProt Q6P2M8); cell-free assay: 100%
Serine/threonine-protein kinase PAK 5 (PAK5, Homo sapiens, UniProt Q9P286); cell-free assay: 97%
Phosphatidylinositol 4-phosphate 3-kinase C2 domain-containing subunit beta (PIK3C2B, Homo sapiens, UniProt O00750); cell-free assay: 82%
Receptor-interacting serine/threonine-protein kinase 1 (RIPK1, Homo sapiens, UniProt Q13546); cell-free assay: 91%
ALK tyrosine kinase receptor (ALK, Homo sapiens, UniProt Q9UM73); cell-free assay: 99%
Myosin light chain kinase, smooth muscle (MYLK, Homo sapiens, UniProt Q15746); cell-free assay: 95%
Focal adhesion kinase 1 (PTK2, Homo sapiens, UniProt Q05397); cell-free assay: 95%
Serine/threonine-protein kinase 35 (STK35, Homo sapiens, UniProt Q8TDR2); cell-free assay: 100%
Mitogen-activated protein kinase kinase kinase kinase 3 (MAP4K3, Homo sapiens, UniProt Q8IVH8); cell-free assay: 76%
Mast/stem cell growth factor receptor Kit (KIT, Homo sapiens, UniProt P10721, A829P); cell-free assay: 96%
Serine/threonine-protein kinase Sgk3 (SGK3, Homo sapiens, UniProt Q96BR1); cell-free assay: 100%
Non-receptor tyrosine-protein kinase TNK1 (TNK1, Homo sapiens, UniProt Q13470); cell-free assay: 85%
Tyrosine-protein kinase Fes/Fps (FES, Homo sapiens, UniProt P07332); cell-free assay: 99%
Serine/threonine-protein kinase N1 (PKN1, Homo sapiens, UniProt Q16512); cell-free assay: 98%
Citron Rho-interacting kinase (CIT, Homo sapiens, UniProt O14578); cell-free assay: 65%

Sample 2 — effect on: enzyme activity; action: inhibitor; tested at: 10 µM; endpoint: inhibition
Target: Calcium/calmodulin-dependent protein kinase type II subunit alpha (CAMK2A, Homo sapiens, UniProt Q9UQM7)
UniProt Q9UQM7, sequence (whole entry, looked up): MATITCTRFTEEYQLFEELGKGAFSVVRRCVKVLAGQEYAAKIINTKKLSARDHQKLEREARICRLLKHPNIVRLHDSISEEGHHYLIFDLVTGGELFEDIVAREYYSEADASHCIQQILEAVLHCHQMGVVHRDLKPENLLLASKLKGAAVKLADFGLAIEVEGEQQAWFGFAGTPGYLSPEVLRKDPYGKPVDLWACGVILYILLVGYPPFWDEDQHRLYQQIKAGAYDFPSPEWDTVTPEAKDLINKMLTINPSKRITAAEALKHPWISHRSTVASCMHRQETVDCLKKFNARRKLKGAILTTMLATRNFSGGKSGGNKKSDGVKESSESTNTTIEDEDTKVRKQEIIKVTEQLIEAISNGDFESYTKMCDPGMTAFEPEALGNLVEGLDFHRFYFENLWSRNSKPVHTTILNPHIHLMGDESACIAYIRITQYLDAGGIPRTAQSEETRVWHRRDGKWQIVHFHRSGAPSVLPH
O=C(/C=C/c1ccc(O)c(O)c1)c1ccc(O)cc1O: 24%
NCCCNCCCCNCCCN: 10%
CN(C)CCC[C@@]1(c2ccc(F)cc2)OCc2cc(C#N)ccc21: -12%
C=C1[C@H](O)C[C@H]2[C@@H](/C=C(\C)C(=O)[C@@]3(O)C[C@H](C)[C@H](O)[C@@H]3[C@H]1O)C2(C)C: -7%
CCOC(=O)c1c(N)sc2c1CCN(Cc1ccccc1)C2: -10%
C[C@H]1C[C@H]2[C@@H]3CCC4=CC(=O)C=C[C@]4(C)[C@@]3(F)[C@@H](O)C[C@]2(C)[C@@]1(O)C(=O)CO: -5%
CC1=C[C@]23C(=O)[C@@H](C=C(CO)[C@@H](O)[C@]2(O)[C@H]1O)[C@H]1[C@@H](C[C@H]3C)C1(C)C: -8%
Nc1nc2c([nH]c(=O)n2[C@@H]2O[C@H](CO)[C@@H](O)[C@H]2O)c(=O)[nH]1: -2%
C=C(C)[C@@H]1CC[C@]2(C(=O)O)CC[C@]3(C)[C@H](CC[C@@H]4[C@@]5(C)CCC(=O)C(C)(C)[C@@H]5CC[C@]43C)[C@@H]12: -31%
CNc1ncc(-c2ccc3c(=O)c(C(=O)O)cn(C4CC4)c3c2C)cc1C: -12%
CC(=O)C1=C(O)C=C2Oc3c(C(C)=O)c(O)c(C)c(O)c3[C@@]2(C)C1=O: -2%

Sample 3 — action: inhibitor; tested at: 10 µM; reference: control; endpoint: remaining activity
Target: Diamine acetyltransferase 1 (Homo sapiens, UniProt P21673)
Construct (P21673 1-171): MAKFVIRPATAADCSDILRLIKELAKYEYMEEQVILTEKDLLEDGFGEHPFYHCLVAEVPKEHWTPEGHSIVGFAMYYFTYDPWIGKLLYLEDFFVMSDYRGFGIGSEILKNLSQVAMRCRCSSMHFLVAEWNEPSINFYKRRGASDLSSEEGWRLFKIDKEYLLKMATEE
COC(=O)[C@]1(O)C[C@@H](O)[C@@H](O)[C@H](OC(=O)/C=C/c2ccc(O)c(O)c2)C1: 102%
CCC/C=C1\OC(=O)C2=C1CC[C@H]1[C@H]3C=C4C(=O)O/C(=C\CCC)[C@@]4(CC3)[C@@H]21: 92.5%
C/C=C(/C)C(=O)OC(=O)/C(C)=C\C: 108%
CCOC(=O)C(C)=O: 101%
OCc1cccnc1: 92.5%
C=C(C)[C@@H]1CC[C@]2(CO)CC[C@]3(C)[C@H](CC[C@@H]4[C@@]5(C)CC[C@H](O)C(C)(C)[C@@H]5CC[C@]43C)[C@@H]12: 101%
OC[C@H]1NC[C@H](O)[C@@H](O)[C@@H]1O: 76.3%
CC(=O)OC[C@@H](COC(=O)/C=C/c1ccc(O)cc1)OC1OC(CO)C(O)C(O)C1O (stereo partly drawn): 78.2%
N[C@@H](CCC(=O)O)C(=O)O: 100%
CC1=CC[C@H]2C[C@@H]1C2(C)C: 101%
CC1(C)CC[C@]2(C(=O)O)[C@H](O)C[C@]3(C)C(=CC[C@@H]4[C@@]5(C)C[C@H](O)[C@H](O)C(CO)(CO)[C@@H]5CC[C@]43C)[C@@H]2C1: 110%
O=Cc1ccc(O)c(O)c1: 94.9%

Sample 4 — method: PRP chromatography estimate; medium: 1,9-decadiene/PBS; pH: 7.4; endpoint: logD
CCC[C@@H]1NC(=O)CSC[C@@H](C(=O)OCC)N(C)C(=O)[C@H](CC(C)C)NC(=O)[C@@H](C)N(C)C(=O)[C@H](CC(C)C)NC(=O)[C@H](C)N(C)C(=O)[C@H]2CCCN2C(=O)[C@@H](CC(C)C)NC(=O)CN(C)C1=O: -0.291
CC(C)C[C@@H]1NC(=O)[C@H](CC(C)C)NC(=O)[C@@H](C(C)C)NC(=O)[C@H](Cc2cscn2)NC(=O)[C@@H](Cc2cscn2)NC(=O)[C@H](Cc2cscn2)NC(=O)[C@H](CCC(=O)N2CCCC2)NC1=O: -2.74
CC(C)C[C@@H]1NC(=O)[C@H](C)NC(=O)[C@H](C)NC(=O)[C@H](CCC(=O)N2CCCC2)NC(=O)[C@H](CC(C)C)NC(=O)[C@H](CC(C)C)NC(=O)[C@@H](CC(C)C)NC1=O: -1.91
CC(C)C[C@@H]1NC(=O)[C@H](CC(C)C)NC(=O)[C@@H](CC(C)C)NC(=O)[C@H](C(C)C)NC(=O)[C@H](C(C)C)NC(=O)[C@H](Cc2cscn2)NC(=O)[C@H](C)NC1=O: -0.678
CC(C)C[C@@H]1NC(=O)[C@H](CC(C)C)NC(=O)[C@@H](CC(C)C)NC(=O)[C@H](C)NC(=O)[C@H](C(C)C)NC(=O)[C@H](C)NC(=O)[C@H](C)NC1=O: -2.32
CC(C)C[C@@H]1NC(=O)[C@H](Cc2cscn2)NC(=O)[C@H](C)NC(=O)[C@H](CCC(=O)N2CCCC2)NC(=O)[C@@H](CCC(=O)N2CCCC2)NC(=O)[C@H](CC(C)C)NC(=O)[C@@H](CC(C)C)NC1=O: -2.7
CC(C)C[C@@H]1NC(=O)[C@H](C)NC(=O)[C@@H](CC(C)C)NC(=O)[C@@H](CC(C)C)NC(=O)[C@@H](Cc2cscn2)NC(=O)[C@H](CC(C)C)NC(=O)[C@@H](CC(C)C)NC1=O: 0.508
CC(C)C[C@@H]1NC(=O)[C@H](CCC(=O)N2CCCC2)NC(=O)[C@H](CC(C)C)NC(=O)[C@@H](CCC(=O)N2CCCC2)NC(=O)[C@H](CC(C)C)NC(=O)[C@@H](CC(C)C)NC(=O)[C@H](CC(C)C)NC1=O: -0.332
CCOC(=O)[C@@H]1CSCC(=O)N[C@@H](CC)C(=O)N(C)[C@@H](C)C(=O)N[C@H](CC(C)C)C(=O)N2CCC[C@@H]2C(=O)N(CC)CC(=O)N[C@@H](CC(C)C)C(=O)N(C)[C@H](C)C(=O)N[C@@H](CC(C)C)C(=O)N1C: -0.388
CCC[C@@H]1NC(=O)CSC[C@@H](C(=O)OCC)N(C)C(=O)[C@H](CC(C)C)NC(=O)[C@H](C)N(C)C(=O)[C@H](CC(C)C)NC(=O)[C@H](C)N(C)C(=O)[C@@H](C)N(C)C(=O)[C@@H](CC(C)C)NC(=O)CN(C)C1=O: 0.0322
CC(C)C[C@@H]1NC(=O)[C@H](CC(C)C)NC(=O)[C@@H](CC(C)C)NC(=O)[C@H](C(C)C)NC(=O)[C@H](C)NC(=O)[C@H](Cc2cscn2)NC(=O)[C@H](CCC(=O)N2CCCC2)NC1=O: -1.91
CC(C)C[C@@H]1NC(=O)[C@H](C)NC(=O)[C@H](CC(C)C)NC(=O)[C@@H](CCC(=O)N2CCCC2)NC(=O)[C@H](CC(C)C)NC(=O)[C@@H](CC(C)C)NC(=O)[C@H](CC(C)C)NC1=O: -0.472
